Measured values collected from several papers.
Each line is one published result; not all experiments were run side by side. ± marks the error that the study gave.
Method: steady-state kinetics
B1: msrA (Clostridium oremlandii, UniProt A8MI53); chain MDTNQKLSIAVFALGUFWGPDAQFGSIKGVVSTRVGYAGGTTNNPSYYNLGDHSESIEIQYDANVITYGELLNIFWNLHNPVYETTNRQYMSRIFYLDDGQKSEALEMKRQIEAANGEKIYTEIVPLENFYLAEGYHQKYYLQNTTKLYQTLKAIYGGFGNLVRSTLAARMNGYIAGNLSIASLKEEMDLVELPEDQYEKVLSIVEEIK
B2: BaiA2 (Clostridium scindens, UniProt P19337); chain MNLVQDKVTIITGGTRGIGFAAAKIFIDNGAKVSIFGETQEEVDTALAQLKELYPEEEVLGFAPDLTSRDAVMAAVGQVAQKYGRLDVMINNAGITSNNVFSRVSEEEFKHIMDINVTGVFNGAWCAYQCMKDAKKGVIINTASVTGIFGSLSGVGYPASKASVIGLTHGLGREIIRKNIRVVGVAPGVVNTDMTNGNPPEIMEGYLKALPMKRMLEPEEIANVYLFLASDLASGITATTVSVDGAYRP
B3: MMP2 (Homo sapiens, UniProt P08253); chain YNFFPRKPKWDKNQITYRIIGYTPDLDPETVDDAFARAFQVWSDVTPLRFSRIHDGEADIMINFGRWEHGDGYPFDGKDGLLAHAFAPGTGVGGDSHFDDDELWTLGEGQVVRVKYGNADGEYCKFPFLFNGKEYNSCTDTGRSDGFLWCSTTYNFEKDGKYGFCPHEALFTMGGNAEGQPCKFPFRFQGTSYDSCTTEGRTDGYRWCGTTEDYDRDKKYGFCPETAMSTVGGNSEGAPCVFPFTFLGNKYESCTSAGRSDGKMWCATTANYDDDRKWGFCPDQGYSLFLVAAHEFGHAMGLEHSQDPGALMAPIYTYTKNFRLSQDDIKGIQELYGASPDIDLGTGPTPTLGPVTPEICKQDIVFDGIAQIRGEIFFFKDRFIWRTVTPRDKPMGPLLVATFWPELPEKIDAVYEAPQEEKAVFFAGNEYWIYSASTLERGYPKPLTSLGLPPDVQRVDAAFNWSKNKKTYIFAGDKFWRYNEVKKKMDPGFPKLIADAWNAIPDNLDAVVDLQGGGHSYFFKGAYYLKLENQSLKSVKFGSIKSDWLGC
B4: protein (Sinorhizobium meliloti, UniProt Q92T34); chain MPAKSPVIVDLKFIPEEVEAALAGAFPGREVIDLADPAHQERDLSGIDYAVVWKSAPDLFSRAPDLKVVFSGGAGVDHVLTLPGLPDVPLVRFVDRTLTTRMSEWVMMQCLLHLRQHRAYEALAKKHEWRDLSQPEAADVTVGIMGMGVLGQDAARKLAAMGFKVIGWSRSKRVIEGVETYDAAGLDAFLGRTDFLVGLLPLTPDTRGIFNAALFAKLSRNGPFGAPVFINAGRGGSQVEADILECLDSGVLGGASLDVFEREPLSPESRFWDMPNVYVTPHVAASSDVRALFVHVEHQIARFESGLPLEHVVDKVAGY
B5: ybiA (Escherichia coli, UniProt P30176); chain MPVRAQRIQHVMQDTIINFYSTSDDYGDFSNFAAWPIKVDGKTWPTSEHYFQAQKFLDEKYREEIRRVSSPMVAARMGRDRSKPLRKNWESVKEQVMRKALRAKFEQHAELRALLLATAPAKLVEHTENDAYWGDGGHGKGKNRLGYLLMELREQLAIEK
B6: enzyme (Irpex lacteus, UniProt A0A510I1H7); chain QSQVWGQCGGIGWTGATTCVAGSVCTKSNDYYSQCIPGAAAPSSAPPASTPVSVPPSQPSGSSGGLANIPASKLTQFSNFGTNPNNVQMFVYKPKNVAANPPLIVASHYCSGTAQAYFTGSKFAQLAETYGYVVIFPSSPHSGTCWDVSSDETLMHDGGSDSLSIANAARFAISNWGVDPNRVFAVGTSSGAMMTSVLAGAYPDIFKAGIVDSGVAFGCFAVPGQPEDSWNSQCSEGQLVLTGQQWAQKVKNAFPGFTGTYPKMQVWHGTADTTLYPQNFFEEVKQWTTIFNYPSTPLSNVTQTNLGSNYHNATFGPNFQAILATGVGHTVPLFEQQYLQFLGIA
B7: Rtr1 residues 1-226 (Saccharomyces cerevisiae, UniProt P40084); chain MATIEDIKETALIPFQKHRQLSMHEAEVITLEIIGLLCDSECKDEKTLKYLGRFLTPDMYQDLVDERNLNKRCGYPLCGKSPERIRDPFSMNDTTKKFLLENNPYAYLSHYCSKFHFRCSQFYQVQLSDEALFARTGVHLFEDPEQDKHDIDFKVTLFEELLREKASEEDIKSLISGLKKLGLNPDSGTTEKDDTELEDDLSKWLAQIKIVENDNPSILGDFTRED
Chain of UniProt Q29437 (whole entry, looked up): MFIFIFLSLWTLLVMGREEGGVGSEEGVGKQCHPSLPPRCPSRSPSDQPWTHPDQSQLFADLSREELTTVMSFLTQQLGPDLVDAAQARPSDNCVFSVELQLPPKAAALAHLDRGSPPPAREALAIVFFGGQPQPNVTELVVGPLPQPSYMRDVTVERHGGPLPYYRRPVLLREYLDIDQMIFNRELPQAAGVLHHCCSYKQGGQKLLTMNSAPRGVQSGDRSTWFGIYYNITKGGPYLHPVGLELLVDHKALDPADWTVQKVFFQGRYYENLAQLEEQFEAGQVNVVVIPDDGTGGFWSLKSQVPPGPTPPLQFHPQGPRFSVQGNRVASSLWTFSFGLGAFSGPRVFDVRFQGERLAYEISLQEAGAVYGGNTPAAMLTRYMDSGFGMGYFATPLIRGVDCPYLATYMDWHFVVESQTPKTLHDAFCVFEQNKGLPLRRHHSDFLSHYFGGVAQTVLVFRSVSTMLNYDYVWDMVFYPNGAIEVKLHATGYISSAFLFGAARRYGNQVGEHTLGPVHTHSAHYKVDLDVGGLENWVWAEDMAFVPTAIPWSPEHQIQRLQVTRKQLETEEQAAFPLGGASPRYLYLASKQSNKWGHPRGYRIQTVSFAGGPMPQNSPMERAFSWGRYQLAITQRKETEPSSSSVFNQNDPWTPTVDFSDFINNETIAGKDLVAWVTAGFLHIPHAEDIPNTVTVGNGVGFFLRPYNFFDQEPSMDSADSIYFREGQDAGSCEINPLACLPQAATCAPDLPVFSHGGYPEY
Chain of UniProt P0AB87 (whole entry, looked up): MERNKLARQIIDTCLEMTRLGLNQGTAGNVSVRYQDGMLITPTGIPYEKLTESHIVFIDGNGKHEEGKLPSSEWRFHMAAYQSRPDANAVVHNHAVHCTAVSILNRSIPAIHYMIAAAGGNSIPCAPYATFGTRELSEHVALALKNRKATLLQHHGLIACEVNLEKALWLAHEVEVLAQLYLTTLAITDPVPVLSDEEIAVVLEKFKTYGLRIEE

B1 (msrA) — kcat/Km (CN(C)c1ccc(N=Nc2ccc(S(=O)(=O)N[C@@H](CC[S@+](C)[O-])C(=O)O)cc2)cc1; pH 7.5, 37 °C, 50 mM NaCl, Km above tested range, added: 20 mM DTT reductant): 8240 M⁻¹ s⁻¹
B2 (BaiA2) — kcat/Km (NC(=O)c1ccc[n+]([C@@H]2O[C@H](COP(=O)(O)OP(=O)(O)OC[C@H]3O[C@@H](n4cnc5c(N)ncnc54)[C@H](OP(=O)(O)O)[C@@H]3O)[C@@H](O)[C@H]2O)c1; pH 8.7, 37 °C, cofactor varied, added: glycocholic acid 1.4 mM): 300 M⁻¹ s⁻¹
B3 (MMP2) — kcat/Km (CSCC[C@H](NC(=O)CNC(=O)[C@H](CC(C)C)NC(=O)[C@@H]1CCCN1C(=O)CNC(C)=O)C(=O)N[C@@H](Cc1c[nH]cn1)C(=O)NCC(=O)N[C@@H](CCCCN)C(N)=O): 170000 M⁻¹ s⁻¹
B4 (protein) — kcat/Km (O=CC(=O)O; pH 7.5, 25 °C, NaCl 150 mM, added: NADPH 0.4 mM): 1720 ± 34 M⁻¹ s⁻¹
protein (Cecembia lonarensis, UniProt K1KZY4) — kcat/Km (O=[N+]([O-])c1ccc(O[C@@H]2OC[C@H](O)[C@@H](O)[C@@H]2O)cc1; pH 5.5, 35 °C, substrate inhibition): 232 ± 24 M⁻¹ s⁻¹
Tcur_2987 (Thermomonospora curvata, UniProt D1A807) — kcat/Km (Nc1c(S(=O)(=O)O)cc(Nc2cccc(S(=O)(=O)CCOS(=O)(=O)O)c2)c2c1C(=O)c1ccccc1C2=O; pH 3, sigmoidal kinetics, added: H2O2 1 mM): 2.3e+06 M⁻¹ s⁻¹
fucA (Escherichia coli, UniProt P0AB87) — kcat/Km (C[C@@H](O)[C@@H](O)C(=O)COP(=O)(O)O; pH 7.8, 30 °C): 3900 M⁻¹ s⁻¹
B5 (ybiA) — kcat/Km (Nc1c(N[C@@H]2O[C@H](COP(=O)(O)O)[C@@H](O)[C@H]2O)[nH]c(=O)[nH]c1=O; pH 8, 22 °C, substrate not purified): 140 M⁻¹ s⁻¹
B6 (enzyme) — kcat/Km (CC(=O)Oc1ccc([N+](=O)[O-])cc1; pH 6, 30 °C): 20600 M⁻¹ s⁻¹
Plasma amine oxidase (Bos taurus, UniProt Q29437) — kcat/Km (C[N+](C)(C)CCOc1ccc2cc(CN)ccc2c1; pH 7.2, 30 °C): 3.77e+06 M⁻¹ s⁻¹
enzyme (Bifidobacterium adolescentis, UniProt A1A3M6) — kcat/Km (O=[N+]([O-])c1ccc(O[C@H]2O[C@H](CO)[C@H](O)[C@H](O)[C@H]2O)cc1; pH 5, 40 °C): 408 M⁻¹ s⁻¹
B7 (Rtr1 residues 1-226) — kcat/Km (Cc1cc(=O)oc2c(F)c(OP(=O)(O)O)c(F)cc12; pH 6, NaCl 150 mM, no metal added): 6e+06 M⁻¹ s⁻¹

A few entries again:
B7 (Rtr1 residues 1-226) — kcat/Km (Cc1cc(=O)oc2c(F)c(OP(=O)(O)O)c(F)cc12; pH 6, NaCl 150 mM, no metal added): 6e+06 M⁻¹ s⁻¹
